Published values of several laboratories.
Every numbered part comes from another study and shows a few of its results, in no order. Positions count from the first letter of the parent shown.

Series 1 — read-out: peptide-MHC binding; molecule type: peptide; concentration: concentration not given
Target: HLA class I histocompatibility antigen, A alpha chain, allele A*80:01 (Homo sapiens, UniProt P04439)
For `EVRKAIEFV`, binding read “inactive”.
For `NTDAFSREY`, binding read “inactive”.
For `YKSRCYVGL`, binding read “inactive”.
For `DSDDWLNKY`, binding read “inactive”.
Under binding, `GAWCYDYTV` is recorded as “inactive”.

Series 2 — target: UBE2A UBC core domain (UniProt P49459); technique: yeast two-hybrid; sample: yeast; setting: mostly zero background; reference: not given; reading: higher = stronger interaction
Chain of UniProt P49459 (whole entry, looked up): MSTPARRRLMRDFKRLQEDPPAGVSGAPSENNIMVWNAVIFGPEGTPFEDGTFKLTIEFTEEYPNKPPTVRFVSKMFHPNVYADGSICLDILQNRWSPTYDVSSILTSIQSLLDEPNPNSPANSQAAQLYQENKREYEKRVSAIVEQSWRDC
B1: RFWD3 RING domain (UniProt Q6PCD5); chain ASMDEEEGDTCTICLEQWTNAGDHRLSALRCGHLFGYRCISTWLKGQVRKCPQCNKKARHSDIVV
B2: DZIP3 RING domain (UniProt Q86Y13); chain PDEEEEEEEPCVICHENLSPENLSVLPCAHKFHAQCIRPWLMQQGTCPTCRLHVLLPEEFP
B3: DTX2 RING domain (UniProt Q86UW9); chain EELKVPPDEDCIICMEKLSTASGYSDVTDSKAIGSLAVGHLTKCSHAFHLLCLLAMYCNGNKDGSLQCPSCKTIYGEKTGTQ
B4: RNF19A RING domain (UniProt Q9NV58); chain ISKQIGDFIECPLCLLRHSKDRFPDIMTCHHRSCVDCLRQYLRIEISESRVNISCPECTERFNPHDIR
`B1 (RFWD3 RING domain)`: “lacZ reporter activity” 0.
`B2 (DZIP3 RING domain)`: “lacZ reporter activity” 0.
For `NLSELTPYILCSICKGYLIDATTITECLHTFCKSCIVRHFYYSNRCPKCNIVVHQTQPLY (PCGF6 RING domain (UniProt Q9BYE7))`, “lacZ reporter activity” read 0.
For `B3 (DTX2 RING domain)`, “lacZ reporter activity” read 0.
Under “lacZ reporter activity”, `AVPSGLEENLCKICMDSPIDCVLLECGHMVTCTKCGKRMNECPICRQYVIRAVHVF (RFFL RING domain (UniProt Q8WZ73))` is recorded as 0.
`B4 (RNF19A RING domain)` — result for “lacZ reporter activity”: 0.
`GSRLQEINDVCAICYHEFTTSARITPCNHYFHALCLRKWLYIQDTCPMCHQKVYIEDDIK (RNF139 RING domain (UniProt Q8WU17))`: “lacZ reporter activity” 0.
Under “lacZ reporter activity”, `KLRKLKEAMLCMVCCEEEINSTFCPCGHTVCCESCAAQLQSCPVCRSRVEHVQHVY (MYLIP RING domain (UniProt Q8WY64))` is recorded as 0.

Series 3 — target: CCNB1, cyclin fold, Cln2 fusion (human); technique: yeast growth competition, sequencing; sample: yeast; setting: strong parent motif; reference: not given; reading: higher = stronger binding; parent: viral docking peptide; KGVKRKLFAEDSS
Under “normalised enrichment score”, `D11T` is recorded as 1.21.
`S12Q` — result for “normalised enrichment score”: 1.85.
For `G2V`, “normalised enrichment score” read 1.54.
`K4Y`: “normalised enrichment score” 1.16.

Other studies, line by line — technique: cross-linking MS; sample: cell fractions
`BAG6 (Homo sapiens, UniProt P46379)`: cross-linked residues “K1052 to T1037” (PIK3R4 (Homo sapiens, UniProt Q99570); together with: DSSO).
`PELP1 (Homo sapiens, UniProt Q8IZL8)`: cross-linked residues “K103 to K389” (WDR18 (Homo sapiens, UniProt Q9BV38); together with: DSSO).
For `EXOC3 (Homo sapiens, UniProt O60645)`, cross-linked residues read “K40 to K122” (EXOC4 (Homo sapiens, UniProt Q96A65); together with: DSSO).
`SYNCRIP (Homo sapiens, UniProt O60506)` — result for cross-linked residues: “E355 to E34” (HNRNPA2B1 (Homo sapiens, UniProt P22626); together with: DHSO).

Excerpt of the above (series 1):
For `NTDAFSREY`, binding read “inactive”.
For `DSDDWLNKY`, binding read “inactive”.
